Experimental data of several laboratories.
Compare with care: the assays were run in different laboratories. Numbers after ± are the reported error.
HLA class I histocompatibility antigen, A alpha chain allele A*01:01: HLA class I histocompatibility antigen, A alpha chain, allele A*01:01 (Homo sapiens, UniProt P04439)
Fibroin-modulator-binding protein-1: Fibroin-modulator-binding protein-1 99-193 (Bombyx mori, UniProt Q5FBS0)

CCT3 — co-IP enrichment (co-immunoprecipitation; human RBC cytosol; DMTMM crosslinker, unit not given, together with: Band 3 peptide 1-56 bait; reference: negative control): 22500
colistin — MIC (Acinetobacter baumannii; broth microdilution; clinical isolate RKI-No_13/16): ≤ 0.5 µg/mL
hemoglobin alpha — co-IP enrichment (co-immunoprecipitation; human RBC membrane; DSSO crosslinker, unit not given, together with: Band 3 peptide 1-56 bait; reference: negative control): 38
GSGAGSETSV — binding intensity (human SCRIB PDZ3-4 tandem (MBP fusion); automated holdup; peptide, crude extract; concentration not given, corrected by standard peak, unit not given; reference: biotin control resin, higher = stronger binding): 0.848
human serum albumin — co-IP enrichment (co-immunoprecipitation; human RBC membrane; DMTMM crosslinker, unit not given, together with: Band 3 peptide 1-56 bait; reference: negative control): 17.2
GSGAGSETVV — binding intensity (human MAGI1-2/6 PDZ construct (MBP fusion); automated holdup; peptide, crude extract; concentration not given, corrected by standard peak, unit not given; reference: biotin control resin, higher = stronger binding): 0.2
human delta-aminolevulinic acid dehydratase — co-IP enrichment (co-immunoprecipitation; human RBC cytosol; unit not given, together with: Band 3 peptide 1-56 bait; reference: negative control): 0
NRVDSKETEC — binding intensity (human MAGI1-3/6 PDZ construct (MBP fusion); automated holdup; peptide, crude extract; concentration not given, uncorrected, unit not given; reference: biotin control resin, higher = stronger binding): -0.11
human complement C3 — co-IP enrichment (co-immunoprecipitation; human plasma; no crosslinker, unit not given, together with: Band 3 peptide 1-56 bait; reference: negative control): 0
GLGQWISRA — reporter activation (Jurkat T cells expressing 1G4 TCR; NFAT-eGFP reporter, fluorescence microscopy; peptide; concentration not given, HLA-A*02:01 NY-ESO system): 0.00369%
human alpha-1-acid glycoprotein 1 — co-IP enrichment (co-immunoprecipitation; human RBC membrane; no crosslinker, unit not given, together with: Band 3 peptide 1-56 bait; reference: negative control): 0
GLLQWVTQV — reporter activation (Jurkat T cells expressing 1G4 TCR; NFAT-eGFP reporter, fluorescence microscopy; peptide; concentration not given, HLA-A*02:01 NY-ESO system): 27.4%
LTLGEFLKL — complex half-life (HLA class I histocompatibility antigen, A alpha chain, allele A*02:01 (Homo sapiens, UniProt P04439); peptide-MHC stability, brefeldin A chase; peptide, T2 cells): 2.72 h
TLLQWVTQI — reporter activation (Jurkat T cells expressing 1G4 TCR; NFAT-eGFP reporter, fluorescence microscopy; peptide; concentration not given, HLA-A*02:01 NY-ESO system): 27.7%
Peginesatide — phosphorylation level (UT7/EPO; tyrosine phosphorylation, LC-MS/MS phosphoproteomics, GluC, refers to: GAB1 tyrosine 183; 10 nM, 15 min, together with: 10 U/mL EPO; reference: vehicle): 18.6 fold
CLTSTVQLIM — binding score (HLA class I histocompatibility antigen, A alpha chain allele A*01:01; conformational ELISA; peptide; concentration not given; reference: positive control peptide, direction not given): 4.7%
ALFQWVSQA — reporter activation (Jurkat T cells expressing 1G4 TCR; NFAT-eGFP reporter, flow cytometry; peptide; concentration not given, HLA-A*02:01 NY-ESO system): 6.51%
SVWLRKETRV — binding intensity (human MAGI1-2/6 PDZ construct (MBP fusion); automated holdup; peptide, crude extract; concentration not given, corrected by standard peak, unit not given; reference: biotin control resin, higher = stronger binding): 0.868
SLLEWQCIL — reporter activation (Jurkat T cells expressing 1G4 TCR; NFAT-eGFP reporter, fluorescence microscopy; peptide; concentration not given, HLA-A*02:01 NY-ESO system): 0.0125%
NPDALPETLV — normalised SPR binding response (human MAGI1-2/6 PDZ construct (MBP fusion); surface plasmon resonance; peptide; concentration not given; higher = stronger binding): 23.7 normalised RU
MTVCNASQRQAHAQATAVSL — selectivity ratio (Huh-7 liver cancer; phage binding output/input; peptide; reference: control phage): 250 ± 72
triosephosphate isomerase — co-IP enrichment (co-immunoprecipitation; human RBC cytosol; unit not given, together with: Band 3 peptide 1-56 bait; reference: negative control): 0.692
ALMHWITQV — reporter activation (Jurkat T cells expressing 1G4 TCR; NFAT-eGFP reporter, fluorescence microscopy; peptide; concentration not given, HLA-A*02:01 NY-ESO system): 0.991%
epoetin alfa — mRNA level (UT7/EPO; RT-qPCR, refers to: CCL2; concentration not given, 90 min, normalized to HPRT1; reference: vehicle): 10 fold
VMRLQSETSV — binding intensity (human MAGI1-3/6 PDZ construct (MBP fusion); automated holdup; peptide, crude extract; concentration not given, uncorrected, unit not given; reference: biotin control resin, higher = stronger binding): 0.189
TCP-1 alpha — co-IP enrichment (co-immunoprecipitation; human plasma; unit not given, together with: Band 3 peptide 1-56 bait; reference: negative control): 0
ACTCACTCACTC (dsDNA) — Kd (Fibroin-modulator-binding protein-1; ITC; double-stranded DNA, one strand shown): 2300 ± 286 nM
GSGAGKESYV — binding intensity (human MAGI1-3/6 PDZ construct (MBP fusion); automated holdup; peptide, crude extract; concentration not given, corrected by standard peak, unit not given; reference: biotin control resin, higher = stronger binding): 0.743
YLGEWVAQL — reporter activation (Jurkat T cells expressing 1G4 TCR; NFAT-eGFP reporter, flow cytometry; peptide; concentration not given, HLA-A*02:01 NY-ESO system): 0.22%
QSARYRDTEL — binding intensity (human MAGI1-2/6 PDZ construct (MBP fusion); automated holdup; peptide, crude extract; concentration not given, uncorrected, unit not given; reference: biotin control resin, higher = stronger binding): 0.0758
insulin aspart — AUC(0-t) (ELISA after PEG precipitation, refers to: free insulin aspart; human, type 1 diabetes, serum; subcutaneous, dose not given, least squares mean): 0.72 nM·h
CLLEWITHV — reporter activation (Jurkat T cells expressing 1G4 TCR; NFAT-eGFP reporter, fluorescence microscopy; peptide; concentration not given, HLA-A*02:01 NY-ESO system): 0.171%
ATACATACATACATAC (dsDNA) — Kd (Fibroin-modulator-binding protein-1; ITC; double-stranded DNA, one strand shown): 108 ± 4.5 nM
ITDFGRAK — binding score (HLA class I histocompatibility antigen, A alpha chain allele A*01:01; conformational ELISA; peptide; concentration not given; reference: positive control peptide, direction not given): 0.8%

Repeated from above:
epoetin alfa — mRNA level (UT7/EPO; RT-qPCR, refers to: CCL2; concentration not given, 90 min, normalized to HPRT1; reference: vehicle): 10 fold
VMRLQSETSV — binding intensity (human MAGI1-3/6 PDZ construct (MBP fusion); automated holdup; peptide, crude extract; concentration not given, uncorrected, unit not given; reference: biotin control resin, higher = stronger binding): 0.189
TCP-1 alpha — co-IP enrichment (co-immunoprecipitation; human plasma; unit not given, together with: Band 3 peptide 1-56 bait; reference: negative control): 0
ACTCACTCACTC (dsDNA) — Kd (Fibroin-modulator-binding protein-1; ITC; double-stranded DNA, one strand shown): 2300 ± 286 nM
